Measurements of several laboratories.
Each numbered part is a random draw from the data of one study; scales do not carry over between parts. Substitutions count along the parent as printed.

Study 1
Target: ABI1, truncated, D143A, DHFR fusion (Arabidopsis thaliana)
Technique: DHFR PCA, deep sequencing
Medium: yeast
Notes: methotrexate growth selection, single substitutions
Added: (+)-ABA 17 µM
Relative to: wild-type fitted maximum
Direction: higher = stronger binding
Parent: PYL1, truncated, DHFR fusion (Arabidopsis thaliana); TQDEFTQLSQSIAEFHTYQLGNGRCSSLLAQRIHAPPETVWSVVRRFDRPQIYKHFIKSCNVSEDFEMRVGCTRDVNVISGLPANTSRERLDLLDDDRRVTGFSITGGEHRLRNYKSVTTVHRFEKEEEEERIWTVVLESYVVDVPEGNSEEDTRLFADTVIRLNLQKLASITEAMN
| Change | relative binding score [%] |
| --- | --- |
| T101I | 94.9 |
| V121N | 2.58 |
| R132G | 107 |
| E147Q | 81.9 |
| I33W | 1.86 |
| V40H | -11.8 |
| A13H | 78 |
| E38A | 71 |
| W41E | -4.24 |
| S26A | 78.6 |

Study 2
Target: CCNB3, cyclin fold, Cln2 fusion (human)
Technique: yeast growth competition, sequencing
Medium: yeast
Notes: weak parent motif
Relative to: not given
Direction: higher = stronger binding
Parent: CDC6 docking peptide (human); TLKGRRLVFDNQL
| Change | normalised enrichment score |
| --- | --- |
| L13W | 0.72 |
| L13I | -0.0463 |
| L13T | -0.33 |
| N11L | -0.00396 |
| K3G | 0.237 |
| N11W | 0.81 |
| N11A | 0.836 |
| G4A | 0.225 |
| G4V | 0.275 |
| N11V | 0.206 |

Study 3
Target: Hepatocyte nuclear factor 3-alpha (Foxa1, Mus musculus, UniProt P35582, residues 1-468, full length assumed)
Technique: EMSA with sequencing
Form: double-stranded DNA, one strand shown
Medium: in vitro
Tested at: 10 and 20 nM
Notes: whole designed probe, mean of two concentrations, ends assumed
Relative to: negative control set to 0
Direction: higher = stronger binding
Constant ends, left off below: GTGAGCGGTGCCCATTGATGGGGAAC … TTTCACTGGGATCGTGGGGAC
Construct (chain): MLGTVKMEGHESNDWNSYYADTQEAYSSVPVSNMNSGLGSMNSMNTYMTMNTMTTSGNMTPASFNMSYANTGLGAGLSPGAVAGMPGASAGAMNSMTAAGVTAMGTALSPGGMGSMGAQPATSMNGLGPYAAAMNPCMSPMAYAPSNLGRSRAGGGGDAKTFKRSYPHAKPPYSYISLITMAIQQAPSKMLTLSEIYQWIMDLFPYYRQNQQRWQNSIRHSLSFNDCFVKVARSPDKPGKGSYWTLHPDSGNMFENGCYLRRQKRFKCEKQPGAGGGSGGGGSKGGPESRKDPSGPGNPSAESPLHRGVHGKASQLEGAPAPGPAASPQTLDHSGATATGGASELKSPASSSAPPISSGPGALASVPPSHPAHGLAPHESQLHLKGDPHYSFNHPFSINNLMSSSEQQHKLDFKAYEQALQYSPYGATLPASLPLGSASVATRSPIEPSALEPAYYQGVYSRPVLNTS
| Sequence | normalised bound fraction |
| --- | --- |
| ATCTTACCCTTGCTGGGAGTAAACAAAGTTATAAACAGTTGTTTTAAAAAAATAGTTGGTTTCAGATGAAAAATTTCTGTATTCAATTTGTCTTGTGTACCTAGAATGCCACGGTAGCACTTCTCCCCCAGGGAAATATGTTGGACATTTCTGTTTCAGTGTACCGCCTGTCACTAATGCCATGGAAACCCAG | 0.169 ratio |
| TGATGAAATGGTCTGGAAAGTCCTGGATTCCTTAAGAGTTGAGGGAAATCATCCTGCCTAAGTAAAGGAAACAATACCCATTGAATTGGCCCTGTTTACACTGCAGGGGATAAGCGCACGGAGGAGTTGTGCCTTGAGGTATTTTTGTCCCGCTTCAGCAAAAGCAGTGCTGTCTCTTTGATTTGTAAAGACT | 0.2 ratio |
| ATCTTCCCCCTCTTCCTTGCCCCACCAGCTCACCTTCCCGGGTCAAAGTAAACAAGTGTTTACTTTGAAGCCGGCATTCGTTAACCCTCTTCACGCGCATACTGCACATTGGTCTGGATGAATCATGGTCCTTTGGCGACGCCAGGCTCCGGGAGAGCAAAGCACCGTGTCAGGGCCATGATCCGGGGTGGCC | 0.436 ratio |
| CTGTGCAGAAAAGAGATAGCACAGTAAGACTGAGACTCTTGATACCCACAGAAAGGCTGACCTTTGCCTACAGTCTGCAAACGTCACTGGTAAGTAATCTGCTCCCTACATTGATACAAAACTCTCTAAGTGAAAACAGTGGCTCACTGTGCCTAACGGGTTTATGCTAAAGACCTGTTTTCCTTTCAGGAGT | -0.0371 ratio |
| GCATGAGCCGCATTGCCCAGCAAAAGCCTCTAAGTGGTGATTTGCTGTTTGGCCTGAGAGTAATTTGGAGGCTGTGGCTGAGTCAGCTTCTCTTGTTGACTGAGCAGTTGACTCTTTTGACCTTCATTGTTCCATAATTCCTTATGAAACTCTTCTGAAGCACTGAGAACCATCGACGGATCATATCAGCATG | 0.0236 ratio |

Other studies, line by line
| Molecule | target | assay | system | conditions | scale | measurement | value |
| --- | --- | --- | --- | --- | --- | --- | --- |
| PhoQ, residues 284 288 289 292 302 303 NLSRDF | PhoP, residues 12 14 15 18 19 MHTVL (Escherichia coli, UniProt P23836) | Sort-seq, measured: YFP reporter | E. coli | PhoQ-PhoP variant library, added: 10 µM Mg2+ | relative to: high Mg2+ state, higher = stronger signaling | fold induction | 7.6 |

Excerpt of the above (study 3):
| Sequence | normalised bound fraction |
| --- | --- |
| ATCTTCCCCCTCTTCCTTGCCCCACCAGCTCACCTTCCCGGGTCAAAGTAAACAAGTGTTTACTTTGAAGCCGGCATTCGTTAACCCTCTTCACGCGCATACTGCACATTGGTCTGGATGAATCATGGTCCTTTGGCGACGCCAGGCTCCGGGAGAGCAAAGCACCGTGTCAGGGCCATGATCCGGGGTGGCC | 0.436 ratio |
| CTGTGCAGAAAAGAGATAGCACAGTAAGACTGAGACTCTTGATACCCACAGAAAGGCTGACCTTTGCCTACAGTCTGCAAACGTCACTGGTAAGTAATCTGCTCCCTACATTGATACAAAACTCTCTAAGTGAAAACAGTGGCTCACTGTGCCTAACGGGTTTATGCTAAAGACCTGTTTTCCTTTCAGGAGT | -0.0371 ratio |
